Measurements gathered from unrelated publications.
Protocols differ between the studies behind these lines. Numbers after ± are the reported error.
Organism: Escherichia coli

Molecule	test	test system	setting	MIC
CNC(C)C1CCC(N)C(OC2C(N)CC(N)C(OC3OCC(C)(O)C(NC)C3O)C2O)O1 (stereo not shown)	microbial growth, broth dilution	ATCC25922		0.5 µg/mL
C[C@H]1COc2c(N3CCN(C)CC3)c(F)cc3c(=O)c(C(=O)O)cn1c23	microbial growth, broth dilution	ATCC25922		0.024 µg/mL
CC1(C)S[C@@H]2[C@H](NC(=O)C(C(=O)O)c3ccccc3)C(=O)N2[C@H]1C(=O)O (stereo partly shown)	broth microdilution	BW25113, Mueller-Hinton broth		6.25 µg/mL
CCc1cc(=O)c2c(OCC(O)CN(CC)CC)c3ccoc3c(OC)c2o1 (stereo not shown)	microbial growth, broth dilution	ATCC25	19 h	> 256 µg/mL
CC[C@H](C)[C@H](NC(=O)[C@H](Cc1c[nH]cn1)NC(=O)[C@H](Cc1c[nH]cn1)NC(=O)[C@H](Cc1ccccc1)NC(=O)[C@@H](N)Cc1ccccc1)C(=O)N[C@@H](Cc1ccccc1)C(=O)N[C@@H](CCCNC(=N)N)C(=O)NCC(=O)N[C@@H](CCCCN)C(=O)N[C@H](C(=O)N[C@@H](Cc1c[nH]cn1)C(=O)N[C@H](C(=O)NCC(=O)N[C@@H](CCCCN)C(=O)N[C@H](C(=O)N[C@H](C(=O)N[C@@H](Cc1c[nH]cn1)C(=O)N[C@@H](CCCNC(=N)N)C(=O)N[C@@H](CC(C)C)C(=O)N[C@H](C(=O)N[C@H](C(=O)NCC(N)=O)[C@@H](C)O)C(C)C)[C@@H](C)CC)[C@@H](C)O)C(C)C)C(C)C	broth microdilution	ATCC 25922	18 h, 37 °C	3.1 µg/mL
C(=Nc1ncn[nH]1)c1ccc(-c2ccccc2)cc1	microbial growth, broth dilution	ATCC25922		> 256 µg/mL
CC1(C)S[C@@H]2[C@H](NC(=O)[C@H](N)c3ccccc3)C(=O)N2[C@H]1C(=O)O	broth microdilution	ATCC 25922	16 to 20 h, 37 °C	6.25 to 12.5 µg/mL
CC1(C)S[C@@H]2[C@H](NC(=O)[C@H](N)c3ccccc3)C(=O)N2[C@H]1C(=O)O	serial dilution	ATCC 12014	24 h, 37 °C	5 ± 0.4 µg/mL
RXRRXRRXRRXR (peptide-PNA conjugate)	broth microdilution	peptide, UPEC 536, Mueller-Hinton broth	24 h, 37 °C	1.25 µM
CC[C@@H](C)[C@@H](NC(=O)[C@@H](Cc1c[nH]c2ccccc12)NC(=O)[C@H](N)CCCNC(=N)N)C(=O)N[C@H](CCCNC(=N)N)C(=O)N[C@H](Cc1c[nH]c2ccccc12)C(=O)N[C@@H](C(=O)N[C@H](Cc1c[nH]c2ccccc12)C(=O)N[C@H](CCCNC(=N)N)C(=O)N[C@H](CCCCN)C(=O)N[C@H](CCCCN)C(=O)N[C@H](CC(C)C)C(=O)N[C@H](CCCNC(=N)N)C(N)=O)C(C)C		ATCC 25922	1 h, 37 °C, non-dividing cells in PBS	25 to 50 µg/mL
Oc1ccc(O)c(C=Nc2ncn[nH]2)c1	microbial growth, broth dilution	ATCC25922		32 µg/mL
CCN(CC)c1ccc(C=NNC(=O)c2ccc(C)cc2)c(O)c1	microbial growth, broth dilution	ATCC25922		> 256 µg/mL
CC1(C)SC2C(NC(=O)C(NC(=O)C3=C(O)C(Cc4ccc(O)cc4)NC3=O)c3ccccc3)C(=O)N2C1C(=O)O (stereo not shown)	broth microdilution	BW25113, Mueller-Hinton broth	18 h, without clavulanic acid	6.25 µg/mL
CNC(C)C1CCC(N)C(OC2C(N)CC(N)C(OC3OCC(C)(O)C(NC)C3O)C2O)O1 (stereo not shown)	broth microdilution	ATCC 25922	37 °C	0.78 to 1.56 µg/mL
CCc1cc(=O)c2c(OCC(O)CNC(C)(C)C)c3ccoc3c(OC)c2o1 (stereo not shown)	microbial growth, broth dilution	ATCC25	19 h	> 256 µg/mL
CC1(C)SC2C(NC(=O)C(NC(=O)C3=C(O)C(Cc4ccccc4)NC3=O)c3ccccc3)C(=O)N2C1C(=O)O (stereo not shown)	broth microdilution	BW25113, Mueller-Hinton broth	18 h, without clavulanic acid	100 µg/mL
CC[C@H](C)[C@H](NC(=O)[C@H](CCCCN)NC(=O)[C@H](CCC(=O)O)NC(=O)[C@H](CCCCN)NC(=O)[C@H](CO)NC(=O)[C@H](CCCCN)NC(=O)[C@H](CCCNC(=N)N)NC(=O)[C@H](Cc1ccccc1)NC(=O)[C@H](Cc1ccccc1)NC(=O)[C@H](CC(=O)O)NC(=O)CNC(=O)[C@H](CC(C)C)NC(=O)[C@@H](N)CC(C)C)C(=O)NCC(=O)N[C@@H](CCCCN)C(=O)N[C@@H](CCC(=O)O)C(=O)N[C@@H](Cc1ccccc1)C(=O)N[C@@H](CCCCN)C(=O)N[C@@H](CCCNC(=N)N)C(=O)N[C@H](C(=O)N[C@H](C(=O)N[C@@H](CCC(N)=O)C(=O)N[C@@H](CCCNC(=N)N)C(=O)N[C@H](C(=O)N[C@@H](CCCCN)C(=O)N[C@@H](CC(=O)O)C(=O)N[C@@H](Cc1ccccc1)C(=O)N[C@@H](CC(C)C)C(=O)N[C@@H](CCCNC(=N)N)C(=O)N[C@@H](CC(N)=O)C(=O)N[C@@H](CC(C)C)C(=O)N[C@H](C(=O)N1CCC[C@H]1C(=O)N[C@@H](CCCNC(=N)N)C(=O)N[C@H](C(=O)N[C@@H](CCC(=O)O)C(=O)N[C@@H](CO)C(=O)O)[C@@H](C)O)C(C)C)[C@@H](C)CC)C(C)C)[C@@H](C)CC	broth dilution	DH5α		3 µg/mL
CCN(CC)c1ccc(C=NNC(=O)c2ccccc2)c(O)c1	microbial growth, broth dilution	ATCC25922		> 256 µg/mL
CC1(C)SC2C(NC(=O)C(NC(=O)C3=C(O)C4(CC4)NC3=O)c3ccccc3)C(=O)N2C1C(=O)O (stereo not shown)	broth microdilution	BW25113, Mueller-Hinton broth	with: 2,2'-bipyridyl 30 µg/mL	50 µg/mL
CS(=O)(=O)c1ccc(C=Nc2ncn[nH]2)cc1	microbial growth, broth dilution	ATCC25922		> 256 µg/mL
CC1(C)S[C@@H]2[C@H](NC(=O)Cc3ccccc3)C(=O)N2[C@H]1C(=O)O	broth microdilution	ATCC 25922	37 °C	25 to 50 µg/mL
CCc1cc(=O)c2c(OCC3CO3)c3ccoc3c(OC)c2o1 (stereo not shown)	microbial growth, broth dilution	ATCC25	19 h	> 256 µg/mL
CC[C@H](C)[C@H](NC(=O)[C@H](CCCNC(=N)N)NC(=O)CNC(=O)[C@H](CC(C)C)NC(=O)[C@H](Cc1ccccc1)NC(=O)[C@H](CCCCN)NC(=O)[C@H](CO)NC(=O)[C@H](Cc1ccccc1)NC(=O)[C@H](Cc1c[nH]c2ccccc12)NC(=O)[C@H](CCC(N)=O)NC(=O)[C@@H](NC(=O)[C@@H](N)Cc1ccccc1)C(C)C)C(=O)N[C@@H](CC(C)C)C(N)=O		ATCC 25922	1 h, 37 °C, non-dividing cells in PBS	12.5 to 25 µg/mL
Cc1ccc(C=Nc2nc[nH]n2)c(O)c1	microbial growth, broth dilution	ATCC25922		64 µg/mL
CCOC(=O)c1c(N)csc1-c1cn(-c2ccccc2)nc1-c1ccc(C)cc1	broth microdilution	clinical urinary isolate	compound gamma-irradiated 15 kGy	0.122 ± 0.5 µg/mL

Repeated from above:
Molecule	test	test system	setting	MIC
CC[C@@H](C)[C@@H](NC(=O)[C@@H](Cc1c[nH]c2ccccc12)NC(=O)[C@H](N)CCCNC(=N)N)C(=O)N[C@H](CCCNC(=N)N)C(=O)N[C@H](Cc1c[nH]c2ccccc12)C(=O)N[C@@H](C(=O)N[C@H](Cc1c[nH]c2ccccc12)C(=O)N[C@H](CCCNC(=N)N)C(=O)N[C@H](CCCCN)C(=O)N[C@H](CCCCN)C(=O)N[C@H](CC(C)C)C(=O)N[C@H](CCCNC(=N)N)C(N)=O)C(C)C		ATCC 25922	1 h, 37 °C, non-dividing cells in PBS	25 to 50 µg/mL
Oc1ccc(O)c(C=Nc2ncn[nH]2)c1	microbial growth, broth dilution	ATCC25922		32 µg/mL
CCN(CC)c1ccc(C=NNC(=O)c2ccc(C)cc2)c(O)c1	microbial growth, broth dilution	ATCC25922		> 256 µg/mL
